Results from different studies.
Lines come from different studies, so protocols differ.
Cell line: Caco-2

SMILES	assay	setting	how to read	measurement	result
CC(C)CC(NC(=O)OCc1ccccc1)C(=O)NC(CC1CCNC1=O)C(=O)C(=O)NC1CC1 (stereo not drawn)	–	5 (unit not given)	–	CC50	> 250 µM
Cc1cc(-c2ccc3ccccc3c2)nnc1NCCN1CCN(C)CC1	–	5 µM, 0.5 h	–	Papp B-A	17.2 ×10⁻⁶ cm/s
N#Cc1ccc(N2N=C3c4ccc(C(=O)O)cc4CCC3C2C2CCCC2)cc1Cl (stereo not drawn)	–	10 µM, 2 h	–	apparent permeability A to B	6 ×10⁻⁶ cm/s
C[C@@H]1O[C@@H](O[C@@H]2[C@@H](O)[C@H](O)[C@@H](CO)O[C@H]2c2c(O)cc(O)c3c(=O)cc(-c4ccc(O)cc4)oc23)[C@H](O)[C@H](O)[C@H]1O	CCK-8	10 µM, 24 h	–	viability	106%
Cc1ccc(CNC(=O)c2ccn3c(-c4ccc(C#N)cc4)cnc3c2)cn1	–	–	–	Papp	1.78 ×10⁻⁶ cm/s
CCC1CC(c2ccc(C(=O)O)cc2C)=NN1c1ccc(C#N)c(Cl)c1 (stereo not drawn)	–	10 µM, 2 h	–	apparent permeability B to A	12.3 ×10⁻⁶ cm/s
O=C(O)c1cccc(CP(=O)(O)O)n1	metabolic activity, Alamar blue	24 h, without 10% FBS	–	EC50	> 250 µg/mL
CCN(Cc1ccc2nc(C)[nH]c(=O)c2c1)c1ccc(C(=O)NC(C(=O)O)C(C)C)cc1 (stereo not drawn)	–	–	baseline: B-A over A-B	efflux ratio	3.2
CCc1nnc(-c2c(OC)cc(-c3cnc4cc(-c5cnn(C)c5)ccn34)cc2OC)o1	–	–	–	Papp	2.5 ×10⁻⁶ cm/s

Repeated from above:
SMILES	assay	setting	how to read	measurement	result
CCN(Cc1ccc2nc(C)[nH]c(=O)c2c1)c1ccc(C(=O)NC(C(=O)O)C(C)C)cc1 (stereo not drawn)	–	–	baseline: B-A over A-B	efflux ratio	3.2
